Experimental data collected from several papers.
Numbered parts are unrelated; each lists some results of a single study.
Chain of UniProt P23458 (whole entry, looked up): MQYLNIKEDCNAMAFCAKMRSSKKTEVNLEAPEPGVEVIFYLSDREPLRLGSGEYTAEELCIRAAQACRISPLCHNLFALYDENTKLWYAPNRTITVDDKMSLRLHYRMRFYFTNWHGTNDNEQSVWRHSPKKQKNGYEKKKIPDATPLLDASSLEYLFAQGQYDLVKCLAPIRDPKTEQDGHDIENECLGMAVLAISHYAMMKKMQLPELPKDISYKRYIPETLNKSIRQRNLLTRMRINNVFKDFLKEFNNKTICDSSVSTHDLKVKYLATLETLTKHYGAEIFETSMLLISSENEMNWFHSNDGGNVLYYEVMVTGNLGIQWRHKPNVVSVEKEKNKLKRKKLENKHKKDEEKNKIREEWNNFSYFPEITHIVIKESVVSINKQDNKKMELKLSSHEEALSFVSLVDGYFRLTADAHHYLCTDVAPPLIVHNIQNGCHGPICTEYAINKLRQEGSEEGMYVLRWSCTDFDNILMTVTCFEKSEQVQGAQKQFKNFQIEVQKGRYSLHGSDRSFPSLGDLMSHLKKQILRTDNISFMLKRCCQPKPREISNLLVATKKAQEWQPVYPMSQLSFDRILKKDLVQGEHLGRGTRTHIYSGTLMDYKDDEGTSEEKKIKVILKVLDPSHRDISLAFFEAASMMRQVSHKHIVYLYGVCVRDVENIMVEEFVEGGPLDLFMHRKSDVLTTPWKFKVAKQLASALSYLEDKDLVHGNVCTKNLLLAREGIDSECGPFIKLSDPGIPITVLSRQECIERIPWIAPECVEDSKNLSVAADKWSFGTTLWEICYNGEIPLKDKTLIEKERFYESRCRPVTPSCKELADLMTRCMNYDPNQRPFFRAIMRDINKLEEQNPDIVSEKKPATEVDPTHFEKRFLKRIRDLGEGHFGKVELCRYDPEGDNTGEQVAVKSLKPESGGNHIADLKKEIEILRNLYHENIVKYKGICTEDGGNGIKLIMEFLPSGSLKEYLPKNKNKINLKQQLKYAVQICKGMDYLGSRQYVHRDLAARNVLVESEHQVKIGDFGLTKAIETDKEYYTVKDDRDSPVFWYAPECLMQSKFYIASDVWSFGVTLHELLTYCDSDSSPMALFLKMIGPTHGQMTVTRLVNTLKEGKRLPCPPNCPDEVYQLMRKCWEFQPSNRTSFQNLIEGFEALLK
Chain of UniProt Q9UQ88 (whole entry, looked up): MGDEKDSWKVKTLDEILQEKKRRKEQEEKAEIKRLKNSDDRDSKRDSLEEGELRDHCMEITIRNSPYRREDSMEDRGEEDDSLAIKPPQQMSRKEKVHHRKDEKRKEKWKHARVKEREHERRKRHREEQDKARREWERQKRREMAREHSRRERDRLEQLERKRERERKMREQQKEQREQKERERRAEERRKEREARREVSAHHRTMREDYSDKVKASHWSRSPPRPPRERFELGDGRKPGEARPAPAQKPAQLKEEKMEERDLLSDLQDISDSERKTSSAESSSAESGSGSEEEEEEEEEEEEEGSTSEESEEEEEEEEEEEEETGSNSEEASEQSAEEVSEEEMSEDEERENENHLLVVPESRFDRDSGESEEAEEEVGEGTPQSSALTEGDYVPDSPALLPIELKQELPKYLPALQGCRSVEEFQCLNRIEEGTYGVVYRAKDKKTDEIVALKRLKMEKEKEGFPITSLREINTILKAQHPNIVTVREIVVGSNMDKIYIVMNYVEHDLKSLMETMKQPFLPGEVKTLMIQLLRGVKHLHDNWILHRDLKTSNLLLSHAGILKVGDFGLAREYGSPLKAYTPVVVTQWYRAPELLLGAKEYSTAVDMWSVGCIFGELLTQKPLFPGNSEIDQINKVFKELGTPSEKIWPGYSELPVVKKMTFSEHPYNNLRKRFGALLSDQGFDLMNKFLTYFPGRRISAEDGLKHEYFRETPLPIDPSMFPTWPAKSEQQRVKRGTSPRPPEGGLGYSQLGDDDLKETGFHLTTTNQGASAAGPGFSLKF
Chain of UniProt P10721 (whole entry, looked up): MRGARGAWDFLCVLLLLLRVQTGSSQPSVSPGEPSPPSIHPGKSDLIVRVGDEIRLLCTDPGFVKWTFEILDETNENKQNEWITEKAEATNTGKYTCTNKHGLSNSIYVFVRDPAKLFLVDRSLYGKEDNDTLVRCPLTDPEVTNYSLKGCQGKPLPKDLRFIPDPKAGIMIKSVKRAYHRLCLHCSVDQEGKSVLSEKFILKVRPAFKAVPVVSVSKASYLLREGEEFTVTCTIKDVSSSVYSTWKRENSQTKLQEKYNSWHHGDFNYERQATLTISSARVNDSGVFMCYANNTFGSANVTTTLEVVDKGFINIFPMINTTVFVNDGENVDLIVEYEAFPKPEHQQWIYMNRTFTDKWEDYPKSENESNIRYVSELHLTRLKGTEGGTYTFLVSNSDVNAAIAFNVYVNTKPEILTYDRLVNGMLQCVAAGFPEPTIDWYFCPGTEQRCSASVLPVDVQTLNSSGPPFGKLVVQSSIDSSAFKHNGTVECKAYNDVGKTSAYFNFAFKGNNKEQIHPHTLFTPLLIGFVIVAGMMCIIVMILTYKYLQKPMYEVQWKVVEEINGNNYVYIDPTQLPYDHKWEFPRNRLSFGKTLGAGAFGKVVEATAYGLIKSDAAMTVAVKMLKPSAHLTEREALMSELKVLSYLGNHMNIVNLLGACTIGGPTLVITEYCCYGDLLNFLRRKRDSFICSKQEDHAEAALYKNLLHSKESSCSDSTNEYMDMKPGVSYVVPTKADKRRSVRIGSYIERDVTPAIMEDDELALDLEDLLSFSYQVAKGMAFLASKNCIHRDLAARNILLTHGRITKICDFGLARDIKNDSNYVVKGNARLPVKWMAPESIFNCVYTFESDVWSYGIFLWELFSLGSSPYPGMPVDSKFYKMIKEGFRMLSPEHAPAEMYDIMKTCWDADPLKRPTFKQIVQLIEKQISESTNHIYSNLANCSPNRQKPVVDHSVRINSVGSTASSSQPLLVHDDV
Chain of UniProt O95819 (whole entry, looked up): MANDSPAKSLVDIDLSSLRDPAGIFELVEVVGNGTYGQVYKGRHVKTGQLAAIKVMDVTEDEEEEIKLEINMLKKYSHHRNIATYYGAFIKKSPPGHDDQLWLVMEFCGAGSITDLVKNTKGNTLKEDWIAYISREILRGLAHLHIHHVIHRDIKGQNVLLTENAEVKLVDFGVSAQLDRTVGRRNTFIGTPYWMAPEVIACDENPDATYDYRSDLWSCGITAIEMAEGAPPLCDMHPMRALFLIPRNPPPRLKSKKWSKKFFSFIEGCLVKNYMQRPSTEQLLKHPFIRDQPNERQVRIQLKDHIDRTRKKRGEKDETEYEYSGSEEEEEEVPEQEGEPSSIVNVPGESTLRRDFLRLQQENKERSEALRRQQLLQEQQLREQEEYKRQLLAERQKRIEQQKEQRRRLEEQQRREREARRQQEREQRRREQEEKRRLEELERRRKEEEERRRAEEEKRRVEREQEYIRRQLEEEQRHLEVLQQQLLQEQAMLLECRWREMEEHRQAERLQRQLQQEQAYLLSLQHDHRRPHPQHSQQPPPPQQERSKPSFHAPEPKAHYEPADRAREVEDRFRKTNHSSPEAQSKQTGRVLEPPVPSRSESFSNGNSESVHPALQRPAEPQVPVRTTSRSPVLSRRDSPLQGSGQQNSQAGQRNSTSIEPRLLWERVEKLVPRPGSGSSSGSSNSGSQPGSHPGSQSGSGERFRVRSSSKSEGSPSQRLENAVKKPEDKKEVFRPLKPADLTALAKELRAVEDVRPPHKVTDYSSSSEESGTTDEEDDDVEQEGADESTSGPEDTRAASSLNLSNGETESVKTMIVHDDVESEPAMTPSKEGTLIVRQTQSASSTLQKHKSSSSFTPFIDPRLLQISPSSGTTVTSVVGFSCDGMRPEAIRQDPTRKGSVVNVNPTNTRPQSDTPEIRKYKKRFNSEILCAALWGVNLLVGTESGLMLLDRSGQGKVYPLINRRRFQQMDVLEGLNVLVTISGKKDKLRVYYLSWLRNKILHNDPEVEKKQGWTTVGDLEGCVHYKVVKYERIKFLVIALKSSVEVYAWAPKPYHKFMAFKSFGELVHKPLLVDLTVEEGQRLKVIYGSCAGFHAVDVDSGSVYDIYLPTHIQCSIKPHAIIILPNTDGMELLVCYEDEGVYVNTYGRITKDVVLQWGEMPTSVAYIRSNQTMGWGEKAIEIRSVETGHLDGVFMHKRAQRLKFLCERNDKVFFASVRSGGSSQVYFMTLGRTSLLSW

Block 1
SMILES: Nc1cnc(N2CCc3cc(S(=O)(=O)Nc4c(F)cc(Cl)cc4F)cc(N4CCCC4=O)c32)nc1
Method: competition with immobilised ligand
Tested at: 1 µM
target | assay | remaining binding [%]
Tyrosine-protein kinase ABL1, non-phosphorylated (ABL1, Homo sapiens, UniProt P00519, F317I) | binding | 100
CAMK1G (Homo sapiens, UniProt Q96NX5) | cell-free assay | 100
FGR (Homo sapiens, UniProt P09769) | cell-free assay | 100
IKBKB (Homo sapiens, UniProt O14920) | cell-free assay | 96
ACVRL1 (Homo sapiens, UniProt P37023) | cell-free assay | 86
ALK (Homo sapiens, UniProt Q9UM73, L1196M) | cell-free assay | 81
NTRK3 (Homo sapiens, UniProt Q16288) | cell-free assay | 97

Block 2
Structure (SMILES): C=CC(=O)N1CCC[C@@H](n2nc(-c3ccc(Oc4ccccc4)cc3)c3c(N)ncnc32)C1
Action: inhibitor
Tested at: 1 µM
target | assay | inhibition
NEK10 (Homo sapiens, UniProt Q6ZWH5) | enzyme activity | 33%
TESK1 (Homo sapiens, UniProt Q15569) | enzyme activity | 2%
TAOK1 (Homo sapiens, UniProt Q7L7X3) | enzyme activity | 32%
PRKG2 (Homo sapiens, UniProt Q13237) | enzyme activity | 30%
VRK2 (Homo sapiens, UniProt Q86Y07) | enzyme activity | 36%
MAP3K4 (Homo sapiens, UniProt Q9Y6R4) | enzyme activity | 24%
CDPK1 (Plasmodium falciparum, UniProt P62344) | enzyme activity | 99%
Mast/stem cell growth factor receptor Kit, autoinhibited (KIT, Homo sapiens, UniProt P10721) |  | 29%
Tyrosine-protein kinase JAK1, JH2 pseudokinase domain (JAK1, Homo sapiens, UniProt P23458) |  | 2%

Block 3
Target: Serine/threonine-protein kinase D1 (PRKD1, Homo sapiens, UniProt Q15139)
Chain of UniProt Q15139 (whole entry, looked up): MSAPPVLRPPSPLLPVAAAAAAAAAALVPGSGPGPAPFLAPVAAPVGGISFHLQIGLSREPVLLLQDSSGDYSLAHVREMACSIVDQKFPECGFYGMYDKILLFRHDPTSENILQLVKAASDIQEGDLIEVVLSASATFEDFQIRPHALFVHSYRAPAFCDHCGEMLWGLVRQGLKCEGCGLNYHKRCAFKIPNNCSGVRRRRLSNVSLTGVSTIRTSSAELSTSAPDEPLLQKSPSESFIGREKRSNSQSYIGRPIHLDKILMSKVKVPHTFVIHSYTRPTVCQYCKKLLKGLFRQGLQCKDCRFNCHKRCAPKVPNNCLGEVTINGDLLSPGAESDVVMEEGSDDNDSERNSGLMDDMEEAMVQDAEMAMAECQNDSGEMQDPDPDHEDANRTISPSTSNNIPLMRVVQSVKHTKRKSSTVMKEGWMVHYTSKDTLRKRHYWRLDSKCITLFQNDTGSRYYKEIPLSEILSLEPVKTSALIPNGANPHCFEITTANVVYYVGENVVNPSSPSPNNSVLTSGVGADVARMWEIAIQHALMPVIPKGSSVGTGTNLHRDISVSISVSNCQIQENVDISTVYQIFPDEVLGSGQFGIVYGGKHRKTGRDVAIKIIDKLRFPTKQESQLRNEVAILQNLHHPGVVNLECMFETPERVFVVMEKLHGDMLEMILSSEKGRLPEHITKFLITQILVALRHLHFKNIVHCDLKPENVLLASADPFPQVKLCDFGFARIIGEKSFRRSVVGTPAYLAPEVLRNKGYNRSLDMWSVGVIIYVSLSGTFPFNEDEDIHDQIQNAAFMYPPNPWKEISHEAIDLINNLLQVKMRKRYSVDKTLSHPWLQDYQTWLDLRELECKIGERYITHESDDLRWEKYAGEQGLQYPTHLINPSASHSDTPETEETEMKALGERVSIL
Read-out: enzyme activity
Action: inhibitor
Tested at: 0.5 µM
Relative to: control
Compound | remaining activity
CCOC(=O)c1c(C)[nH]c(/C=C2\C(=O)Nc3ccccc32)c1C | 91.3%
Nc1ncnc2n[nH]c(Nc3ccc(F)cc3)c12 | 98.9%
OCC(O)CCON=C1C(c2c(O)[nH]c3ccccc23)=Nc2ccccc21 (stereo not drawn) | 72.7%
O=C(O)c1ccc2c3c1cccc3c(=O)n1c3ccccc3nc21 | 86.2%
N#CC(C#N)=C(N)/C(C#N)=C/c1ccc(O)cc1 | 101%
Cc1ccc(Nc2nccc(N(C)c3ccc4c(C)n(C)nc4c3)n2)cc1S(N)(=O)=O | 96.9%
COc1cc2ncnc(Nc3ccc(Oc4ccccc4)cc3)c2cc1OC | 95.6%
CC(C)[C@H](CO)Nc1nc(Nc2cc(N)cc(Cl)c2)c2ncn(C(C)C)c2n1 | 94.2%
COc1ccc(CNC(=O)Nc2ncc([N+](=O)[O-])s2)cc1 | 104%
NCCNc1ncc(C(N)=O)c(Nc2cccc(C(F)(F)F)c2)n1 | 30.3%
Nc1ccc2ncnc(NCCc3ccc(Oc4ccccc4)cc3)c2c1 | 99.3%
CO[C@H]1C[C@@H]2CC[C@@H](C)[C@@](O)(O2)C(=O)C(=O)N2CCCC[C@H]2C(=O)O[C@H]([C@H](C)C[C@@H]2CC[C@@H](O)[C@H](OC)C2)CC(=O)[C@H](C)/C=C(\C)[C@@H](O)[C@@H](OC)C(=O)[C@H](C)C[C@H](C)/C=C/C=C/C=C/1C | 98.2%
Oc1ccc(-c2nc(-c3ccncc3)c(-c3ccc(F)cc3)[nH]2)cc1 | 90.7%
COc1cc2nccc(Oc3ccc(NC(=S)NC(=O)c4ccccc4C)cc3)c2cc1OC | 137%
O=C(CCCc1ccc(-c2ccccc2F)cc1)Nc1ccc(O)cc1 | 98.4%

Block 4
SMILES: CN1CCN(C(=O)c2ccc(NC(=O)Nc3ccc(N(C)c4ccnc(Nc5ccc(CS(C)(=O)=O)cc5)n4)cc3)cc2)CC1
Tested at: 1 µM
target | assay | setting | scale | remaining binding
ACVR1B (Homo sapiens, UniProt P36896) | competitive binding panel |  | relative to: vehicle | 77%
LIM domain kinase 2 (LIMK2, Homo sapiens, UniProt P53671) | competitive binding panel |  | relative to: vehicle | 43%
CDK11A (Homo sapiens, UniProt Q9UQ88) | competitive binding panel, item: CDC2L2 |  | relative to: vehicle | 51%
MARK4 (Homo sapiens, UniProt Q96L34) | competitive binding panel |  | relative to: vehicle | 92%
CLK2 (Homo sapiens, UniProt P49760) | competitive binding panel |  | relative to: vehicle | 54%
IRAK3 (Homo sapiens, UniProt Q9Y616) | competitive binding panel |  | relative to: vehicle | 0.1%
EGFR (Homo sapiens, UniProt P00533, del752-759) | competitive binding panel |  | relative to: vehicle | 100%
JAK1 (Homo sapiens, UniProt P23458) | competitive binding panel | JH1 catalytic domain | relative to: vehicle | 76%
CSNK2A1 (Homo sapiens, UniProt P68400) | competitive binding panel |  | relative to: vehicle | 83%
CDK4 (Homo sapiens, UniProt P11802) | competitive binding scan | with: cyclin D1 |  | 77%
MAP4K4 (Homo sapiens, UniProt O95819) | competitive binding panel |  | relative to: vehicle | 33%

Repeated from above (block 1):
target | assay | remaining binding [%]
Tyrosine-protein kinase ABL1, non-phosphorylated (ABL1, Homo sapiens, UniProt P00519, F317I) | binding | 100
CAMK1G (Homo sapiens, UniProt Q96NX5) | cell-free assay | 100
FGR (Homo sapiens, UniProt P09769) | cell-free assay | 100
IKBKB (Homo sapiens, UniProt O14920) | cell-free assay | 96
ACVRL1 (Homo sapiens, UniProt P37023) | cell-free assay | 86
